# Results gathered from unrelated publications.
# Compare with care: the assays were run in different laboratories. Several values in a cell are separate wells, animals, samples, runs or records. ± marks the error that the study gave.
Structure (SMILES),cell line,assay,system,setting,how to read,endpoint,value
CC(C)(C)c1ccc(S(=O)(=O)N2CC2C(N)=O)cc1 (stereo not shown),Balb/c 3T3 fibroblasts,"cytotoxicity, neutral red uptake",DMEM with 5% FBS,24 h,,IC50,20 ± 2 µM
CCCCn1cc(C(=O)O)c(=O)c2cc(F)c(Nc3ccccc3Cl)c([N+](=O)[O-])c21,T47D,"cell growth, SRB",,72 h,,IC50,18.5 ± 0.59 µg/mL
COc1c(C(=O)/C=C/c2ccccc2)ccc2occc12,differentiated SH-SY5Y,MTT,,100 µM,relative to: control,viability,15.9 ± 3%
CC(=O)N[C@@H](CO)C(=O)N[C@@H](CC(=O)O)C(=O)N[C@@H](CCCCNC(=O)CCCC[C@@H]1SC[C@@H]2NC(=O)N[C@@H]21)C(=O)N1CCC[C@H]1C(=O)O,A549,flow cytometry,,"40 µg/mL, 30 min, 37 °C",relative to: cells,cellular uptake,34.7 ± 2.1%
CC(C)C[C@@H](N)C(=O)NCC(=O)N[C@H](C)C(=O)N[C@H](CO)C(=O)N[C@H](Cc1c[nH]c2ccccc12)C(=O)N[C@H](Cc1c[nH]cn1)C(=O)N[C@H](CCCNC(=N)N)C(=O)N1CCC[C@@H]1C(=O)N[C@H](CC(=O)O)C(=O)N[C@H](CCCCN)C(=O)NCCCC[C@@H](NC(=O)[C@H]1CCCN1C(=O)[C@@H](CC(C)C)NC(=O)[C@H]1CCCN1C(=O)[C@@H](CCCNC(=N)N)NC(=O)[C@@H](CCCCN)NC(=O)[C@@H](CCC(N)=O)NC(=O)[C@@H](Cc1ccc(O)cc1)NC(=O)CNC(=O)[C@@H](CC(C)C)NC(=O)[C@@H](CS)NC(=O)[C@@H](CS)NC(=O)[C@@H](CCCCN)NC(=O)[C@@H](CC(=O)O)NC(=O)[C@H]1CCCN1C(=O)[C@@H](CCCNC(=N)N)NC(=O)[C@@H](Cc1c[nH]cn1)NC(=O)[C@@H](Cc1c[nH]c2ccccc12)NC(=O)[C@@H](CO)NC(=O)[C@@H](C)NC(=O)CNC(=O)[C@H](N)CC(C)C)C(N)=O,CEM,LIVE/DEAD calcein-ethidium,,"up to 100 µM, 7 days",,cytotoxicity,not toxic
CC1(C)C=Cc2c(ccc3c(=O)cc(-c4ccccc4)oc23)O1,differentiated SH-SY5Y,MTT,,0.1 µM,relative to: control,viability,97.1 ± 3.8%
CCCCn1cc(C(=O)O)c(=O)c2cc(F)c(Nc3cccc(Cl)c3)c(N)c21,K562,"cell growth or viability, SRB",,,,IC50,88.7 µM and 88 µM
C(#Cc1cncc(OC[C@@H]2CCN2)c1)c1ccccc1,Caco-2,Caco-2 permeability,,"100 µM, 2 h, pH 7.4, together with: verapamil 100 µM",,Papp B to A,20.7 ± 0.02 ×10⁻⁶ cm/s
COC1(c2ccccc2)CC(=O)c2c(cc3c(c2O)C=CC(C)(C)O3)O1 (stereo not shown),differentiated SH-SY5Y,MTT,,1 µM,relative to: control,viability,99.9 ± 4.6%
Cc1ncsc1-c1ccc([C@H](C)NC(=O)[C@@H]2C[C@@H](O)CN2C(=O)[C@@H](NC(=O)CN2CCC(CN3CCN(CCC(=O)N4CCN(c5ncc(-c6cc(NC(=O)c7ccc(F)cc7C(F)(F)F)c(N7C[C@@H](C)N(C)[C@@H](C)C7)cc6F)cn5)CC4)CC3)CC2)C(C)(C)C)cc1,Sf9,LC-MS,,"10 µM, 24 h",relative to: total recovery,cellular fraction of compound,14%
COC(=O)[C@H](CO)NC(=O)[C@H](CCCCN(CC(C)C)C1CC2CCC1C2)NC(=O)[C@H](CCCN1CCOCC1)NC(=O)[C@H](NC(=O)[C@H](Cc1ccccc1)NC(=O)c1ccc(C(C)(C)C)cc1)C1CCC1 (stereo partly shown),mouse embryonic stem cells,"cytotoxicity, CellTiter-Glo",,48 h,,DC50,6 ± 1.4 µM
NC(=O)C1CN1S(=O)(=O)c1ccccc1 (stereo not shown),Balb/c 3T3 fibroblasts,"cytotoxicity, neutral red uptake",DMEM with 5% FBS,24 h,,IC50,56 ± 8 µM
NC(=S)N/N=C/c1ccc(OCc2ccccc2)cc1,IMR-32,MTT,,concentration not given,,cytotoxicity,not toxic

# Repeated from above:
Structure (SMILES),cell line,assay,system,setting,how to read,endpoint,value
NC(=S)N/N=C/c1ccc(OCc2ccccc2)cc1,IMR-32,MTT,,concentration not given,,cytotoxicity,not toxic
